Experimental data from different studies.
Lines come from different studies, so protocols differ. ± marks the error that the study gave.

CC(=O)N[C@H](CCCNC(=N)N)C(=O)N[C@H](CCCCN)C(=O)N[C@H](Cc1ccc(O)cc1)C(=O)N[C@H](CS)C(N)=O
viability (MCF-10A; neutral red; up to 50 nM, 24 h; baseline: untreated): no effect

COc1ccc(C(=O)CCl)c2c1C(=O)CO2
viability (HMC3 GRN luciferase reporter clone; ATP-based; 11 µM, 72 h, 10% FBS): > 75%

CC(C)C1=CC2=CC[C@@H]3[C@](C)(CCC[C@@]3(C)C(=O)OCC#CCN3CCCC3)[C@H]2CC1
viability (BHK-21-hACE2; 20.0 µM, 48 (unit not given)): 98.8%

Cc1cc(O)c2c(C(=O)[O-])[n+]3n(c2c1)CCCC3
viability (HepG2; cell growth or viability, CCK-8; 10 µM, 24 h): 99.3%

O=C(CN1CCN(c2cc3c(cc2F)c(=O)c(C(=O)O)cn3C2CC2)CC1)Nc1ccc(Cl)cc1
viability (KLE GOF p53; MTS; 10 µM, 72 h): 102 ± 3%

COc1cc(-c2oc3cc(OC)c(OC)c(O)c3c(=O)c2OC)ccc1O
viability (RBL-2H3; cell growth or viability, MTT; 100 µM): > 90%

CCN(CC)CC#CCOC(=O)[C@]1(C)CCC[C@@]2(C)[C@H]1CC=C1C=C(C(C)C)CC[C@@H]12
viability (BHK-21-hACE2; 20.0 µM, 48 (unit not given)): 101%

COc1cc2c(cc1OC)C(=O)C(=Cc1ccc(N3CCN(C)CC3)cc1)C2
viability (PC-12; cell viability, MTT; concentration not given, 48 h): no effect

N=C(N)NCCC[C@H](NC(=O)[C@H](CCCNC(=N)N)NC(=O)[C@H](CCCNC(=N)N)NC(=O)[C@H](CCC(N)=O)NC(=O)[C@H](CCCNC(=N)N)NC(=O)[C@H](CCCNC(=N)N)NC(=O)[C@H](CCCCN)NC(=O)[C@H](CCCCN)NC(=O)[C@H](CCCNC(=N)N)NC(=O)CN)C(=O)O
viability (BEAS-2B; MTT; concentration not given, outcome not toxic): not toxic

C=C(C(=O)O)[C@@H]1CC[C@@]2(C)CCC(=O)C(C)=C2C1
viability (RBL-2H3; cell growth or viability, MTT; 100 µM): > 90%

N[C@H](CC[As](O)O)C(=O)O
viability (HCC1569; 10 µM, 72 (unit not given)): ~47%

CSCC[C@H](N)C(=O)N[C@@H](CCC(=O)O)C(=O)N[C@H](C(=O)NCC(=O)N[C@@H](Cc1c[nH]c2ccccc12)C(=O)N[C@@H](Cc1ccc(O)cc1)C(=O)N[C@@H](CCCNC(=N)N)C(=O)N[C@@H](CO)C(=O)N1CCC[C@H]1C(=O)N[C@@H](Cc1ccccc1)C(=O)N[C@@H](CO)C(=O)N[C@@H](CCCNC(N)=O)C(=O)N[C@H](C(=O)N[C@H](C(=O)N[C@@H](Cc1c[nH]cn1)C(=O)N[C@@H](CC(C)C)C(=O)N[C@@H](Cc1ccc(O)cc1)C(=O)N[C@@H](CCCNC(N)=O)C(=O)N[C@@H](CC(N)=O)C(=O)NCC(=O)N[C@@H](CCCCN)C(N)=O)C(C)C)C(C)C)C(C)C
viability (mouse bone marrow-derived dendritic cells; MTT; up to 3 µM; baseline: untreated): 62%

CC(C)C1=C[C@@]23CC[C@@H]4[C@](C)(CCC[C@@]4(C)C(=O)OCC#CCN4CCCC4)[C@H]2C[C@@H]1[C@H]1C(=O)CCC(=O)[C@H]13
viability (BHK-21-hACE2; 20.0 µM, 48 (unit not given)): 115%

CC[C@H](C)[C@H](NC(=O)[C@@H](N)CCCNC(=N)N)C(=O)N[C@@H](CC(N)=O)C(=O)N[C@@H](CC(N)=O)C(=O)N[C@H](C(=O)N1C[C@@H](n2cc([C]34[CH]5[CH]6[CH]7[CH]3[Fe]6754389%10[CH]4[CH]3[CH]8[CH]9[CH]4%10)nn2)C[C@H]1C(=O)N[C@@H](Cc1c[nH]c2ccccc12)C(=O)N[C@@H](CO)C(=O)N[C@@H](CCC(=O)O)C(=O)N[C@@H](C)C(=O)N[C@@H](CCSC)C(=O)N[C@@H](CCSC)C(N)=O)[C@@H](C)CC (some centres unmarked)
viability (P4-CCR5; MTT; up to 59 µM, 2 h): no effect

CC(C)C1=C[C@@]23CC[C@@H]4[C@](C)(CCC[C@@]4(C)C(=O)NCC#CCN4CCCNCC4)[C@H]2C[C@@H]1[C@H]1C(=O)OC(=O)[C@H]13
viability (BHK-21-hACE2; 20.0 µM, 48 (unit not given)): 113%

CCCCCCCCCCCCCCCC(=O)N[C@@H](CCCCN)C(=O)N1CCC[C@H]1C(=O)N[C@H](C(N)=O)C(C)C
viability (murine cells; MTT; 50 µM, 2 h, medium without FBS; baseline: untreated): ≥ 85.5%

CCN(CC)CC#CCOC(=O)[C@]1(C)CCC[C@]2(C)c3ccc(C(C)C)cc3CC[C@@H]12
viability (BHK-21-hACE2; 20.0 µM, 48 (unit not given)): 86%

COc1cc(-c2oc3cc(O)c(OC)c(O)c3c(=O)c2OC)ccc1O
viability (RBL-2H3; cell growth or viability, MTT; 100 µM): > 90%

CC(C)c1ccc2c(c1)CC[C@H]1[C@](C)(C(=O)OCC#CCN3CCCC3)CCC[C@]21C
viability (BHK-21-hACE2; 20.0 µM, 48 (unit not given)): 91.5%

CC[C@H](C)[C@H](NC(=O)[C@@H](NC(=O)[C@H](Cc1ccc(O)cc1)NC(=O)[C@@H]1CSSC[C@@H]2NC(=O)[C@@H]3CCCN3C(=O)[C@H](CC(N)=O)NC(=O)[C@H](Cc3ccccc3)NC(=O)[C@H](CCC(=O)O)NC(=O)[C@H](C(C)C)NC(=O)[C@H](CC(=O)O)NC(=O)[C@@H]3CSSC[C@H](NC(=O)[C@H]([C@@H](C)O)NC(=O)[C@H](CC(C)C)NC(=O)[C@@H]4CCCN4C(=O)[C@@H]4CCCN4C(=O)[C@H](CSSC[C@H](N)C(=O)N4CCC[C@H]4C(=O)NCC(=O)N[C@@H](CCC(=O)O)C(=O)NCC(=O)N[C@@H](CCC(=O)O)C(=O)N[C@@H](CCC(N)=O)C(=O)N3)NC2=O)C(=O)N[C@@H]([C@@H](C)CC)C(=O)N2CCC[C@H]2C(=O)NCC(=O)N[C@@H](CC(=O)O)C(=O)N2CCC[C@H]2C(=O)N[C@@H](Cc2ccc(O)cc2)C(=O)NCC(=O)N[C@@H]([C@@H](C)CC)C(=O)N1)[C@@H](C)CC)C(=O)O
viability (MCF-10A; MTT; up to 50 µM, 48 h): not toxic
